{"data": "Assay results collected from several papers", "target": "Cytochrome P450 2C8 (CYP2C8, Homo sapiens, UniProt P10632)", "note": "Each line is one published result; not all experiments were run side by side. ± gives the spread as reported.", "chain of UniProt P10632 (whole entry, looked up)": "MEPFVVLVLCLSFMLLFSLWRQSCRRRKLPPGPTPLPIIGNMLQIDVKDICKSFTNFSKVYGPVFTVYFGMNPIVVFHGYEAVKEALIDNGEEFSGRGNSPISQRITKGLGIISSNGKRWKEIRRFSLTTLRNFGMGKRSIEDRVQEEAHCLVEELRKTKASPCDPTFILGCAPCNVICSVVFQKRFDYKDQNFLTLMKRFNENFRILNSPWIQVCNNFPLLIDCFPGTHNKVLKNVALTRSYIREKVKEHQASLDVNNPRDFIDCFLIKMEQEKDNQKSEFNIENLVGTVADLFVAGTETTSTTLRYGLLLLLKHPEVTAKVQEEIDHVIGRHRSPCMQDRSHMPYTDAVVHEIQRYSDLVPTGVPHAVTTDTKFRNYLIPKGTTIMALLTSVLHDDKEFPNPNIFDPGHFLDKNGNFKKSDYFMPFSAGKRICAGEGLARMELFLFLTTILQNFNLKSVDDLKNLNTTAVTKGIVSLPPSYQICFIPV"}
{"SMILES": "Nc1ccc(S(=O)(=O)Nc2ccnn2-c2ccccc2)cc1", "system": "pooled human liver microsomes", "setting": "5 min", "quantity": "IC50", "result": "2940 nM"}
{"SMILES": "CCOc1cc(CC(=O)N[C@@H](CC(C)C)c2ccccc2N2CCCCC2)ccc1C(=O)O", "test": "substrate", "system": "human, plasma", "setting": "0.5 mg, day 1", "quantity": "geometric mean AUC(0-last)", "result": "10.5 ng·h/mL"}
{"SMILES": "Cc1cc(C)c(CNC(=O)c2cc(Cl)c3c(c2C)O[C@@](C)([C@H]2CC[C@H](N(C)C)CC2)O3)c(=O)[nH]1", "system": "recombinant human CYP2C8", "setting": "0 and 30 min", "quantity": "CLint", "result": "0.0529 µL/min/pmol"}
{"SMILES": "C[C@H]1CN(C2COC2)CCN1c1ccc(Nc2cc(-c3ccnc(N4CCn5c(cc6c5CC(C)(C)C6)C4=O)c3CO)cn(C)c2=O)nc1", "test": "substrate", "system": "recombinant enzyme", "setting": "1 µM, 60 min", "quantity": "remaining compound", "result": "94.4 ± 7.5%"}
{"SMILES": "COc1cc(O)c(CC=C(C)C)c2c1C(=O)CC(c1ccc(O)cc1)O2 (stereo not drawn)", "test": "enzyme activity, inhibitor", "system": "human liver microsomes", "setting": "1 µM, pH 7.4, with: amodiaquine", "quantity": "inhibition", "result": "87.7 ± 1.1%"}
{"SMILES": "C=CC(=O)Nc1cc(Nc2nccc(-c3cn(C)c4ccccc34)n2)c(OCC(F)(F)F)nc1N(C)CCN(C)C", "test": "substrate depletion", "system": "recombinant human CYP", "setting": "1 µM", "quantity": "intrinsic clearance", "result": "0.5 µL/min/pmol"}
{"SMILES": "COc1cc(O)c(CC=C(C)C)c(O)c1C(=O)/C=C/c1ccc(O)cc1", "test": "enzyme activity, inhibitor", "system": "human liver microsomes", "setting": "10 µM, pH 7.4, with: amodiaquine", "quantity": "inhibition", "result": "92.9 ± 0.4%"}
{"SMILES": "N#C[C@H](C[C@@H]1CCCNC1=O)NC(=O)[C@H](CC1CC1)NC(=O)c1cc2cccc(Cl)c2[nH]1", "test": "NADPH metabolic stability", "setting": "2 µM, pH 7.4, 37 °C, 100 pmol/mL enzyme", "quantity": "half-life", "result": "47.4 s"}
{"SMILES": "CC(C)=CCc1c(O)cc(O)c2c1O[C@H](c1ccc(O)cc1)CC2=O", "setting": "10 µM, pH 7.4", "quantity": "inhibition", "result": "97.6 ± 0.1%"}
{"SMILES": "Cc1cc(Nc2ncnc3ccc(NC4=NC(C)(C)CO4)cc23)ccc1Oc1ccn2ncnc2c1", "test": "substrate", "system": "human, plasma", "setting": "oral, 300 mg single dose, day 1", "quantity": "geometric mean Cmax", "result": "410 ng/mL"}
{"SMILES": "C=CC(=O)Nc1cc(Nc2nccc(-c3cn(C)c4ccccc34)n2)c(OCC(F)(F)F)nc1N(C)CCNC", "test": "substrate depletion", "system": "recombinant human CYP", "setting": "1 µM", "quantity": "intrinsic clearance", "result": "0.3 µL/min/pmol"}
{"SMILES": "CC(C)=CCc1c(O)cc2c(c1O)C(=O)C[C@@H](c1ccc(O)cc1)O2", "setting": "1 µM, pH 7.4", "quantity": "inhibition", "result": "< 10%"}
{"note": "Some of these lines once more:"}
{"SMILES": "N#C[C@H](C[C@@H]1CCCNC1=O)NC(=O)[C@H](CC1CC1)NC(=O)c1cc2cccc(Cl)c2[nH]1", "test": "NADPH metabolic stability", "setting": "2 µM, pH 7.4, 37 °C, 100 pmol/mL enzyme", "quantity": "half-life", "result": "47.4 s"}
